Measurements from different studies.
Protocols differ between the studies behind these lines. ± gives the spread as reported.

| Compound | target or system | test | test system | conditions | scale | quantity | value |
| --- | --- | --- | --- | --- | --- | --- | --- |
| Cc1c(C)c2cccnc2c2ncccc12.O=[N+]([O-])[O-].O=c1c(C=NN=C([S-])Nc2ccccc2)coc2ccccc12.[Cu+2] | supercoiled pUC19 DNA | oxidative DNA cleavage |  | concentration not given, DMSO 10%, with: ascorbic acid |  | nicked circular DNA | 100% |
| COc1ccc2cc3[n+](cc2c1OCCCOC(=O)c1cscn1)CCc1cc2c(cc1-3)OCO2 |  |  | hyperlipidemic hamster | oral gavage, 24 mg/kg daily, 3 weeks |  | plasma triglyceride reduction | 61.3% |
| Nc1nc(-c2ccccc2)nc2[nH]nc(Nc3cc(F)ccc3F)c12 | coxsackievirus B3 | viral cytopathic effect | HeLa |  |  | IC50 | 150 nM |
| O=C(NCc1ccc(OC(F)(F)F)cc1)[C@H]1CCCN(c2ncnc3[nH]c(-c4cccnc4)cc23)C1 | NCI-H2228 | cell growth or viability, MTT |  | 5 µg/mL, 72 h |  | inhibition | 83.4% |
| CC(C)c1ccc(N(C)c2ccc3c(c2)OCC[C@H]3CNc2cnccc2C(=O)O)cc1 | SW480 | cell growth or viability, ATP luminescence |  | 7 days |  | IC50 | 9.79 nM |
| O=C(NCc1ccc(OC(F)(F)F)cc1)[C@H]1CCCN(c2ncnc3[nH]c(-c4ccncc4)cc23)C1 | NCI-H2228 | cell growth or viability, MTT |  | 0.04 µg/mL, 72 h |  | inhibition | 49.6% |
| CN1CCC[C@]1(C)/C=C/S(=O)(=O)NC(=O)Nc1c2c(cc3c1CCC3)CCC2 |  |  | human, whole blood ex vivo | 50 mg twice daily, day 1, 12 h, multiple ascending dose, with: LPS and ATP |  | IL-18 inhibition | 84.2% |
| COc1cc(O)ccc1CCC(c1ccc(O)cc1)c1cc2c(c(C)c1O)OC(c1ccc(O)cc1)CC2 (mixture of isomers) |  |  | human blood | 1 µM, with: A23187 |  | PGD2 level | 5 ± 1 pg/mL |
| N=C(NCC[C@H](NC(=O)c1noc(-c2cc(F)ccc2F)n1)c1nc2ccccc2[nH]1)c1ccc([N+](=O)[O-])o1 | STING pathway | inhibitor, immunoblot | mouse BMDM, wild type | 5 µM, 1 h pretreatment, with: diABZI |  | TBK1 and IRF3 phosphorylation | inhibited |
| Cc1cc(NC2CCN(C)CC2)ccc1-c1cc2c(N3CCC[C@H](C(=O)N4CCCCC4)C3)ncnc2[nH]1 | NCI-H2228 | cell growth or viability, MTT |  | 0.04 µg/mL, 72 h |  | inhibition | 0.5% |
| COC1CN([C@H]2CC[C@H]([C@@]3(C)Oc4c(Cl)cc(C(=O)NCc5c(SC)cc(C)[nH]c5=O)c(C)c4O3)CC2)C1 |  | RNA-seq, refers to: RAB20 | human, whole blood | dose not given, 24 h | relative to: pretreatment baseline | log2 fold change | 1.15 |
| CCN(CC)CC(=O)Nc1cccc(-n2cc(-c3ccc4ccc(-c5cn(-c6cccc(NC(=O)CN(CC)CC)c6)nn5)cc4c3)nn2)c1 | RCC4 | PCR angiogenesis array, refers to: FN1 |  | 5 x IC50, 4 h, normoxia | relative to: untreated | fold regulation | -1.17 |
| C=C(NC(=O)c1csc(-c2nc3c(cc2O)-c2nc(cs2)C(=O)NC(C(C)O)C(=O)NC(=C(C)OC)c2nc(cs2)C(=O)NC2c4nc(cs4)C(=O)NC(COC(=O)c4c5c6c(cccc6n4O)COC(=O)C(OC4CC(C)(O)C(N(C)C)C(C)O4)C2OC5)c2nc-3cs2)n1)C(N)=O (centres unmarked) | Staphylococcus aureus |  | ATCC 43300 MRSA | 1 x MIC, 3 h exposure |  | post-antibiotic effect | 1.15 ± 0.2 h |
| CN1CCN(C(=O)c2ccc(-c3cc4c(N5CCC[C@H](C(=O)NCc6ccc(OC(F)(F)F)cc6)C5)ncnc4[nH]3)cc2)CC1 | NCI-H2228 | cell growth or viability, MTT |  | 0.2 µg/mL, 72 h |  | inhibition | 62.8% |
| C=CC(=O)Nc1cccc(Cn2ncc3cnc(Nc4cnn(CCOC)c4)nc32)c1 | human CSF1R-autoinhibited | KINOMEscan |  | 100 nM | relative to: control | binding | 3.4% |
| CN1CCCNC(=O)c2cccc(c2)C(=O)NCCCN(C)CCCNc2cccc3c2C(=O)c2cccc(c2C3=O)NCCC1 | SAS | RNA-Seq, refers to: MRM1 mRNA |  | 1 µM, 6 h | relative to: untreated cells | log2 fold change | 1.39 |
| Cc1noc(C)c1-c1cc2c(N3CCC[C@H](C(=O)NCc4ccc(OC(F)(F)F)cc4)C3)ncnc2[nH]1 | NCI-H2228 | cell growth or viability, MTT |  | 0.2 µg/mL, 72 h |  | inhibition | 65.3% |
| CNS(=O)(=O)Nc1nccc(Cc2c(C)c3ccc(Oc4ncccc4F)cc3oc2=O)c1F | NCI-H2347 | cell viability |  | 7 days |  | IC50 | 8.31 nM |
| COc1ccc(C(=O)CCc2cc(C(CCc3ccc(O)cc3OC)c3ccc(O)cc3)c(O)cc2OC)cc1 (racemic) |  |  | human blood | 30 µM, with: A23187 |  | 5-HEPE level | 113 ± 40 pg/mL |
| CC(=O)[O-].O.O.[O-]c1ccc(Br)cc1C=NCCN1CCOCC1.[Zn+2] |  | nitric oxide scavenging |  | 120 µM |  | inhibition | 21.9% |
| C=CC(=O)N1[C@@H](c2ccc3c(c2)OCO3)c2[nH]c3ccccc3c2C[C@H]1C(=O)N1CCN(C)CC1 | human cyclin E1 N112C-3xFLAG:CDK2 | co-IP with TMT proteomics, refers to: HNRNPK |  | concentration not given, P61978 | relative to: wild type DMSO | relative co-enrichment | 121% |
| Cc1ncsc1-c1ccc(C(C)NC(=O)C2CC(O)CN2C(=O)C(NC(=O)CCCCCCCCCCN2CCCC(Nc3ncc(Cl)c(Nc4ccccc4S(=O)(=O)C(C)C)n3)C2)C(C)(C)C)cc1 (centres unmarked) | 22Rv1 | RNA-seq, refers to: PRR14L mRNA |  | concentration not given | relative to: DMSO | log2 fold change | -1.79 |
| Nc1ncc(-c2cc(-c3cnn(CC(F)(F)F)c3)ncc2F)nc1C(=O)NC1CNCC(F)C1 (centres unmarked) | MST2 | KINOMEscan |  | 1 µM | relative to: DMSO control | remaining binding | 79% |

For quick reference, copied from above:
| Compound | target or system | test | test system | conditions | scale | quantity | value |
| --- | --- | --- | --- | --- | --- | --- | --- |
| COC1CN([C@H]2CC[C@H]([C@@]3(C)Oc4c(Cl)cc(C(=O)NCc5c(SC)cc(C)[nH]c5=O)c(C)c4O3)CC2)C1 |  | RNA-seq, refers to: RAB20 | human, whole blood | dose not given, 24 h | relative to: pretreatment baseline | log2 fold change | 1.15 |
